Published values pooled from the literature.
Compare with care: the assays were run in different laboratories. Numbers after ± are the reported error.
Ubiquitin carboxyl-terminal hydrolase 39 ZnF-UBD domain: Ubiquitin carboxyl-terminal hydrolase 39, ZnF-UBD domain (Homo sapiens, UniProt Q53GS9)
UniProt Q53GS9, sequence (whole entry, looked up): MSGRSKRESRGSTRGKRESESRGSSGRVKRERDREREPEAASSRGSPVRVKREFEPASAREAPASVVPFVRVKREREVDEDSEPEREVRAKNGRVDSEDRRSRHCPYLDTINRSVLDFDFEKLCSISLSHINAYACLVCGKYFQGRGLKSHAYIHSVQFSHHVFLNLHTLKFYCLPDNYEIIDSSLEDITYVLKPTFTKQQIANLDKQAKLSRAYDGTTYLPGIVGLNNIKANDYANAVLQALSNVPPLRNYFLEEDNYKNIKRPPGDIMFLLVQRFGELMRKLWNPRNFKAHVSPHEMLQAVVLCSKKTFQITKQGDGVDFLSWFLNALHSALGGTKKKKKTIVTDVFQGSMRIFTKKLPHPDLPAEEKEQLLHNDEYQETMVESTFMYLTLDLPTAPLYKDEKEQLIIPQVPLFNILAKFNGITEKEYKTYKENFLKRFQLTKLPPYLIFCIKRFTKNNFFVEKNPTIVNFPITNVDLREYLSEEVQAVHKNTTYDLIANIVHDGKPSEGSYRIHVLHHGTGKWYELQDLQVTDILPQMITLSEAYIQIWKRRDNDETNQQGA

N#Cc1ccc2c(c1)[C@H]1CCCN(C(=O)c3ccc4[nH]cnc4c3)[C@H]1C2
change from baseline (measured: cortisol; human, Phase II trial; oral, 20 mg once daily, HPA axis, mean): 8 nmol/L

Cc1cc(C)c(CNC(=O)c2cc(Cl)c3c(c2C)O[C@@](C)([C@H]2CC[C@H](N(C)C)CC2)O3)c(=O)[nH]1
best overall response PD (IWG 2007 criteria; human, relapsed/refractory angioimmunoblastic T-cell lymphoma; dose not given): 23%

O=P(O)(O)C(Cl)(Cl)P(=O)(O)O
Iba1-positive area (immunostaining; mouse, sham-operated, meninges; dose not given, day 1; reference: total area): 0.45%

NS(=O)(=O)c1nnc(NC(=O)CN2CCC3(CC2)COC3)s1
Ki (Alpha-carbonic anhydrase (Enterococcus faecium, UniProt Q3XYE8); CO2 hydration, inhibitor, stopped-flow kinetics): 0.0124 µM

CO[C@H]1CC[C@H](N2C(=O)CNc3ncc(-c4ccc(C(C)(C)O)nc4)nc32)CC1
pAKT change from baseline (flow cytometry; stimulated monocytes, human, blood; 60 mg single dose, 1.5 h, mean; reference: baseline): -39.8%

C[C@H](Oc1ccc(Br)cc1-c1ccon1)C(=O)O
difference from placebo (muscle velocity recovery cycle; human, tibialis anterior muscle; 400 mg once daily, first response latency at 30 Hz, multiple ascending dose): -0.835%

Nc1ccn([C@@H]2O[C@H](COP(=O)(O)OP(=O)(O)OCC(O)CO)[C@@H](O)[C@H]2O)c(=O)n1 (stereo partly shown)
z-scored log2 fold change (binding, equilibrium dialysis LC-MS; 5 µM, thermostabilized A2AR-BRIL construct; reference: no-protein control, direction not given): 0.101

O=C(O)CNC(=O)c1ccc(C(=O)N2CCC(c3ccc(Cl)cc3)CC2)cn1
Kd (Ubiquitin carboxyl-terminal hydrolase 39 ZnF-UBD domain): > 1000 µM

N[C@@H](CCCCN[C@@H](CCC(=O)O)C(=O)O)C(=O)O
z-scored log2 fold change (binding, equilibrium dialysis LC-MS; 5 µM, thermostabilized A2AR-BRIL construct; reference: no-protein control, direction not given): 0.0393

OC(CCN1CCCCC1)(c1ccccc1)C1CC2C=CC1C2 (stereo not shown)
change in EEG Beta1-power Fz-Cz (resting-state EEG; healthy elderly humans; oral, 2 mg, eyes open, LS mean; reference: baseline): -11.1%

C[C@@H](O)CCOC(=O)C[C@@H](C)O
metabolite level (measured: C14:1-OH acylcarnitine; human, plasma; 60 min, log2-transformed values): -6.28 ± 0.49 µmol/L

c1ccc(-c2n[nH]cc2-c2ccnc3ccccc23)nc1
log2 fold change (kinase binding, competitor, MIB/MS competition, measured: MKK2; Candida albicans cell lysate; 10 µM; reference: DMSO): 1.81

CC(O)(CC(=O)O)C(=O)O (stereo not shown)
z-scored log2 fold change (binding, equilibrium dialysis LC-MS; 5 µM, thermostabilized A2AR-BRIL construct; reference: no-protein control, direction not given): 0.267

CC(C)NCC(O)c1ccc(O)c(O)c1 (stereo not shown)
sarcomere length (ventricular cardiomyocytes, C57BL/6 mouse; dose not given, 0.86 s): 1.5 µm

O=C(O)Cn1cc2ccccc2n1
Kd (Ubiquitin carboxyl-terminal hydrolase 39 ZnF-UBD domain): 665 µM

O=P(O)(O)OC[C@H]1O[C@H](OP(=O)(O)OP(=O)(O)O)[C@H](O)[C@@H]1O
z-scored log2 fold change (binding, equilibrium dialysis LC-MS; 5 µM, thermostabilized A2AR-BRIL construct; reference: no-protein control, direction not given): -1.47

N#Cc1ccn2c(-c3ccncc3)c(-c3ccc(F)cc3)nc2c1
log2 fold change (kinase binding, competitor, MIB/MS competition, measured: HRK1; Candida albicans cell lysate; 1 µM; reference: DMSO): -0.169

CC(CNC(N)=O)C(=O)O (racemic)
z-scored log2 fold change (binding, equilibrium dialysis LC-MS; 5 µM, thermostabilized A2AR-BRIL construct; reference: no-protein control, direction not given): 0.292

NC(=O)c1cnc2[nH]ccc2c1N[C@@H]1[C@@H]2CC3C[C@H]1C[C@@](O)(C3)C2
percent change (CD4+ naive T cells, flow cytometry; Caucasian humans, peripheral blood; 20 mg single dose; reference: baseline): -1.48%

O=C(O)C(O)c1ccc(O)c(O)c1 (racemic)
z-scored log2 fold change (binding, equilibrium dialysis LC-MS; 5 µM, thermostabilized A2AR-BRIL construct; reference: no-protein control, direction not given): -0.276

COc1cc2cc(-c3ccc(CC(=O)Nc4cc(C(C)(C)C(F)(F)F)no4)cn3)cnc2cc1OC
best overall response PR (RECIST v1.1; human RET-altered solid tumours; 11 50 mg tablets, phase I): 11%

CC(=O)Oc1cc2c(s1)CCN(C(C(=O)C1CC1)c1ccccc1F)C2 (stereo not shown)
patients with inhibition above threshold (platelet aggregation, light transmission aggregometry; human patients, platelet-rich plasma; dose not given, 15 min, inhibition threshold 90%, with: ADP 5 µM): 0%

Repeated from above:
N#Cc1ccn2c(-c3ccncc3)c(-c3ccc(F)cc3)nc2c1
log2 fold change (kinase binding, competitor, MIB/MS competition, measured: HRK1; Candida albicans cell lysate; 1 µM; reference: DMSO): -0.169

CC(CNC(N)=O)C(=O)O (racemic)
z-scored log2 fold change (binding, equilibrium dialysis LC-MS; 5 µM, thermostabilized A2AR-BRIL construct; reference: no-protein control, direction not given): 0.292
